Measurements pooled from the literature.
Parts stem from different laboratories: compare values within a part only. Substitutions count along the parent as printed.

Block 1
Target: Interferon regulatory factor 5, full length, phosphomimetic (IRF5, Homo sapiens, UniProt Q13568-2, residues 1-514, S451D/S453D/S456D/S462D)
Method: protein-binding microarray
Form: double-stranded DNA, one strand shown
Sample: in vitro
Tested at: 940 nM top
Notes: 60-bp whole probe
With: salmon DNA 0.4 mg/ml
Reference: random background probes
Direction: higher = stronger binding
Endpoint: fitted relative affinity
Constant ends, left off below: GCCTAGCAC … GTCTTGATTCGCTTGACGCTGCTG
TCATGTTTGATCTTGATACTGTGCTAG: 0.372 z-score
TCAGGTATCCTTATCCTTTAGTGCTAG: 0.486 z-score
GGCGAACTGAGTTTCGAGACGTGCTAG: 3.86 z-score
CTACTTCTGTTTTTGCTTTCGTGCTAG: 2.09 z-score
GTAGGACTGGGGACTGGGTTAGTGCTA: -0.679 z-score
TTAGGACTGCTTCCCCTTTAGTGCTAG: -0.126 z-score
GACGGTTTCGGGTTTCGGTACGTGCTA: 9.79 z-score
CTAGATTTCAGTTCCGATTAGTGCTAG: 1.75 z-score
GTCGGTCTCCTTCTCCTGACGTGCTAG: 1.5 z-score
TCATTAATCACATATACAACTGTGCTA: 1.09 z-score
TTACGTTTCGACACTGGGTTAGTGCTA: 4.32 z-score
GACGGTTACGGGACTGGGGACGTGCTA: -0.0569 z-score
GACGGACTGGACACTGGGGGCGTGCTA: -0.398 z-score
GACGGACTGCTACTGTTGACGTGCTAG: -0.509 z-score

Block 2
Target: Sal-like protein 4, full length isoform B (SALL4, Homo sapiens, UniProt Q9UJQ4-2, residues 1-616)
Method: universal PBM
Form: double-stranded DNA, one strand shown
Sample: in vitro
Tested at: not given
Notes: 8-mer, flanks averaged, mean of replicates
Direction: higher = stronger binding
Endpoint: E-score
Residues (chain): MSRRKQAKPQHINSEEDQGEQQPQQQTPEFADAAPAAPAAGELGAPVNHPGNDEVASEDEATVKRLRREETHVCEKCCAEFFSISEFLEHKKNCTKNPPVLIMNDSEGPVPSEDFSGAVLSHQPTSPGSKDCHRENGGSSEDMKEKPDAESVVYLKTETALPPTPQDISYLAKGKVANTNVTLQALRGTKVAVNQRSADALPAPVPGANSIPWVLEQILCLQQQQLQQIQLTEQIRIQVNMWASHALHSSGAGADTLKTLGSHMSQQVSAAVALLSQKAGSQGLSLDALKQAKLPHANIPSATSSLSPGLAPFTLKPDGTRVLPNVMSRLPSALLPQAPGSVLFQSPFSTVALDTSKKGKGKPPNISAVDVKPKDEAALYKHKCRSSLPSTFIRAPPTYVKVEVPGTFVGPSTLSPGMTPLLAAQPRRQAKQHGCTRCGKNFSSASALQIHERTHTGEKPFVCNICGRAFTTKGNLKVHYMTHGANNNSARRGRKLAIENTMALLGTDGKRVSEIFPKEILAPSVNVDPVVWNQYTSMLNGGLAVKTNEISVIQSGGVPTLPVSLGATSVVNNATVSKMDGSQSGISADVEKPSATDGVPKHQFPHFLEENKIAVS
GCGTCGGA: -0.188
AATAACGA: 0.289
GAAGTTAC: -0.0113
ATGGATGG: -0.0258
CCTACCAG: -0.304
CCGGTATC: -0.219
ACTCTGAC: -0.0616
CTCTGTGC: -0.194
ATTAGAAA: 0.226
CCCCAAAA: 0.113
CAAACGAA: 0.126
AGCCCCTG: -0.35
CTACTTAC: 0.151
CCACTCGG: -0.212
GTCGGAGA: -0.118
CATCTCGA: 0.0447
CACAACGG: -0.186
AGCTGATG: -0.155
GGTAGTGA: -0.112
CCAGAAGC: -0.218
CGGGCACG: -0.265
ACGCAGCC: -0.273
AGGCGTAA: 0.0218
AAGGCACC: -0.25

Block 3
Target: ABI1, truncated, D143A, DHFR fusion (Arabidopsis thaliana)
Method: DHFR PCA, deep sequencing
Sample: yeast
Notes: methotrexate growth selection, single substitutions
With: (+)-ABA 0 µM
Reference: wild-type fitted maximum
Direction: higher = stronger binding
Endpoint: relative binding score
Starting sequence: PYL1, truncated, DHFR fusion (Arabidopsis thaliana); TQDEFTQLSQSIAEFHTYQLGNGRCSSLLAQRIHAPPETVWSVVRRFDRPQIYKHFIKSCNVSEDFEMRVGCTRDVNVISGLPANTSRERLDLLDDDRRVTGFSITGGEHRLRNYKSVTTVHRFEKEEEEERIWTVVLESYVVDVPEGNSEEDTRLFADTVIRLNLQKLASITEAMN; partner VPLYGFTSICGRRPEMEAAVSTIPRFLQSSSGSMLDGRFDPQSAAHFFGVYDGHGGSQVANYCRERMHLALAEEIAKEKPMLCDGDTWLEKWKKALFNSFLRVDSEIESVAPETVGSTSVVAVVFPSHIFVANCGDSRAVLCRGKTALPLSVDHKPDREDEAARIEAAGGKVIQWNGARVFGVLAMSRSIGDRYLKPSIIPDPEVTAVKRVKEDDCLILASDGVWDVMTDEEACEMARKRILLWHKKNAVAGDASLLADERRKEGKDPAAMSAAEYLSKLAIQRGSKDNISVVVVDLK
G148K: -17.8%
C60L: -1.45%
E14G: 1.42%
H122Y: 1.18%
R98K: 27.5%
P146I: 15.9%
E67V: 37.7%
R113T: 11.9%
Q7M: 20.8%

Block 4
Target: Histone acetyltransferase KAT6A, both winged helices, GST fusion (KAT6A, Homo sapiens, UniProt Q92794, residues 1-181)
Method: protein binding microarray
Form: double-stranded DNA, one strand shown
Sample: in vitro
Tested at: not given
Notes: 8-mer, flanks averaged, mean of 2 arrays, mostly near background
Reference: not given
Direction: higher = stronger binding
Endpoint: E-score
Residues (chain): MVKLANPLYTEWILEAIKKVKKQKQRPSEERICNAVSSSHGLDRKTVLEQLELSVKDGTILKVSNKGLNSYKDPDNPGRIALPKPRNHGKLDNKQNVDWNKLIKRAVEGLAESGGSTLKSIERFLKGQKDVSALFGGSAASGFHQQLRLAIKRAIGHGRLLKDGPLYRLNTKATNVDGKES
GCAGATAC: -0.0366
CCCGTTAA: 0.204
CGCACCGA: 0.0952
GTTGAGTA: 0.0073
ACAGCGTG: 0.196
ACGTACGC: 0.208
ATTTTCCC: -0.0288
CAGACCTA: -0.0937
CATAGCCA: -0.166
CTAAAAAC: 0.0968
AGGAAGTA: -0.139
ATTATGCC: 0.00159
GATTATTA: 0.0285
GGTTCAGA: -0.113

Some of these lines once more (block 2):
CGGGCACG: -0.265
ACGCAGCC: -0.273
AGGCGTAA: 0.0218
